Results pooled from the literature.
Lines come from different studies, so protocols differ. Numbers after ± are the reported error. ≈ marks a conversion by molar mass, not a printed value.

The plasma concentration of `C[C@H]1CNCCc2ccc(Cl)cc21` is reported as 21.1 ± 1.06 ng/mL (Sprague-Dawley rat, male, plasma; subcutaneous, 1 mg/kg, 60 min).
`NNC(=O)c1ccncc1` gave a fraction unbound of > 0.999 (THP-1 caseum surrogate; 5 µM, 4 h, 37 °C).
For `CCCC(C(=O)c1ccc2c(c1)OCO2)N1CCCC1` (stereo not drawn), the stability was 3.3 % difference (human plasma; 25 µg/L, 24 h, Medium QC, room temperature; relative to: freshly fortified plasma).
With `N[C@@]1(c2ccccc2Cl)CC[C@@H](O)CC1=O` the dose-normalized Cmax was 133 ± 7.8 ng/mL per mg/kg (female CD-1 mice, plasma; intraperitoneal, 5 mg/kg).
With `CCCC(C(=O)c1ccc(O)c(OC)c1)N1CCCC1` (stereo not drawn) the stability was 4.8 % difference (human plasma; 750 µg/L, 24 h, High QC, room temperature; relative to: freshly fortified plasma).
For `C[C@@H]1N=C(c2ccccc2F)c2cc(Br)ccc2NC1=O`, the fraction unbound was 0.0449 (rapid equilibrium dialysis; rat plasma; 5 µM, 4 h, 37 °C).
`CC(=O)NC[C@H]1CN(c2ccc(-c3ccc(CNCc4cnn[nH]4)cc3)c(F)c2)C(=O)O1` has a fraction unbound of 0.076 ± 0.019 (THP-1 caseum surrogate; 5 µM, 4 h, 37 °C).
`CCOC(=O)c1cncn1[C@@H](C)c1ccccc1` has an ID50 of 10.7 ± 1.2 mg/kg (serum corticosterone, inhibitor; Sprague-Dawley rat; intravenous, 15 min, 50% reduction, together with: ACTH1-24).
The dose-normalized Cmax of `N[C@@]1(c2ccccc2Cl)C[C@H](O)CCC1=O` is reported as 505 ± 19 ng/mL per mg/kg (female CD-1 mice, plasma; intraperitoneal, 5 mg/kg).
For `CC(=O)NNC(=O)c1ccncc1`, the fraction unbound was 89.4 ± 4.7% (rabbit plasma; 5 µM, 4 h, 37 °C).
`C[C@]12CC[C@H]3[C@@H](CCC4=CC(=O)CC[C@@]43C)[C@@H]1CC[C@@H]2O` has a cumulative permeation of 0.33 ± 0.13 nmol/cm² (excised human skin, female; 6 nmol/cm^2, 6 h, 32 °C, 100% ethanol vehicle).
The ED50 of `CN[C@@H](C)Cc1ccccc1` is reported as 78 mg/kg (seizure incidence; C57Bl/6J mice, both sexes; intraperitoneal, 2 h, dose as base).
With `CCCCCn1cc(C(=O)c2cccc3ccccc23)c2ccccc21` the brain concentration was 83 ± 42.8 ng/g (HPLC-MS/MS; mouse, brain; inhalation, 2.7 mg in 50 mg smoked Buzz, 60 min).
`Cc1ncc2n1-c1ccc(Cl)cc1C(c1ccccc1F)=NC2` has an AUC(0-t) of 111 ng·h/mL (healthy male, plasma; oral, 7.5 mg, alone, geometric mean, day 1).
With `CN1CC[C@@]23CCCC[C@@H]2[C@@H]1Cc1ccc(O)cc13` the MRT(0-inf) was 5.41 ± 1.07 h (Wistar rat, both sexes, plasma; oral, 5 mg/kg DEM, DEM 2 h after pretreatment, together with: QN 2.5 mg/kg single pretreatment).
`O=[N+]([O-])c1cn2c(n1)OC[C@@H](OCc1ccc(OC(F)(F)F)cc1)C2` has a fraction unbound of 0.036 ± 0.002 (THP-1 caseum surrogate; 5 µM, 4 h, 37 °C).
`CC(C)=C1C/C=C(\C)CC/C=C(\C)CC1=O` has a CC50 of 135 µM (cell viability, MTT; mouse lung slices; 48 h).
`NC1(c2ccccc2Cl)CCCCC1=O` (racemic) has a plasma concentration of ≥ 5 ng/mL (male Wistar rats, plasma; intraperitoneal, 40 mg/kg single dose, up to 48 h).
With `CNC(C)Cc1ccc2c(c1)OCO2` (stereo not drawn) the LD50 was 101 mg/kg (C57BL/6J mouse both sexes; intraperitoneal, 2 h, as free base).
`C[C@@H]1CC[C@@](N)(c2ccccc2Cl)C(=O)[C@@H]1O` gave a dose-normalized Cmax of 427 ± 31.8 ng/mL per mg/kg (female CD-1 mice, plasma; intraperitoneal, 5 mg/kg).
`CN[C@@](C)(C[18F])C(=O)O` has a tracer uptake of 4.3 %ID/g (DU-145 tumour model; host not given, liver; 2 h, tumour-bearing).
`O=C1CCCO1`: “time window of effects” 0.5 to 5 h (measured: ataxia, vomiting, tremor; baboon (Papio anubis); two highest doses).
`CNC(C)C(=O)c1ccc(C)cc1` (stereo not drawn) has an ED50 of 103 mg/kg (seizure incidence; C57Bl/6J mice, both sexes; intraperitoneal, 2 h, dose as base).
For `N[C@@]1(c2ccccc2Cl)CCC[C@H](O)C1=O`, the dose-normalized Cmax was 169 ± 8.2 ng/mL per mg/kg (female CD-1 mice, plasma; intraperitoneal, 5 mg/kg).
`CN(C)CCc1c[nH]c2ccccc12` has a blood clearance of 18200 mL/min (healthy human; intravenous infusion, 21.5 mg, from plasma clearance).
`Cc1ncc2n1-c1ccc(Cl)cc1C(c1ccccc1F)=NC2` gave a terminal half-life of 5.68 h (human CYP3A5 expressers, serum; geometric mean, together with: ketoconazole 200 mg).
`Cc1ncc(OC[C@@]2(c3cccc(F)c3)C[C@H]2C(=O)Nc2ccc(F)cn2)c(C)n1`: “adverse events leading to discontinuation” 0% (healthy human; 10 mg, together with: itraconazole).
`CC1N=C(c2ccccc2F)c2cc(N(C)C)ccc2NC1=O` (stereo not drawn) gave a solubility of 186 µM (≈ 58.1 µg/mL) (shake flask; PBS; 24 h, pH 7.4).
`CCCCCCCCCCC(=O)O[C@H]1CC[C@H]2[C@@H]3CCC4=CC(=O)CC[C@]4(C)[C@H]3CC[C@]12C` gave a testosterone change of 20.9% (human blood, NaF/EDTA tubes; 300 ng/mL, 60 min; relative to: no compound added).
The AUC(0-t) of `Cc1ncc2n1-c1ccc(Cl)cc1C(c1ccccc1F)=NC2` is reported as 101 ng·h/mL (healthy human volunteers, plasma; oral, 7.5 mg single dose, arithmetic mean, alone).
`CNC(C)Cc1ccc2c(c1)OCO2` (racemic) — result for “diastolic pressure change”: 6.7 (human; oral, 0.75 mg/kg, unit not given; relative to: pre-dose baseline).
`COc1ccc2c(c1)[C@]13CCCC[C@@H]1[C@H](C2)N(C)CC3` has an AUC(0-inf) of 231 ± 62.4 ng·h/mL (Wistar rat, both sexes, plasma; oral, 5 mg/kg, 2 h after pretreatment, together with: single TCE 100 mg/kg).
`C=C1C[C@@H]2[C@H](CC[C@]3(C)C(=O)CC[C@@H]23)[C@@]2(C)C=CC(=O)C=C12`: “median plasma concentration” 7.8 ng/mL (LC-MS/MS; postmenopausal breast cancer women, plasma; oral, 25 mg/day, 2 h, CYP3A4*22 non-carriers, White only).

Excerpt of the above:
With `CN1CC[C@@]23CCCC[C@@H]2[C@@H]1Cc1ccc(O)cc13` the MRT(0-inf) was 5.41 ± 1.07 h (Wistar rat, both sexes, plasma; oral, 5 mg/kg DEM, DEM 2 h after pretreatment, together with: QN 2.5 mg/kg single pretreatment).
`O=[N+]([O-])c1cn2c(n1)OC[C@@H](OCc1ccc(OC(F)(F)F)cc1)C2` has a fraction unbound of 0.036 ± 0.002 (THP-1 caseum surrogate; 5 µM, 4 h, 37 °C).
`CC(C)=C1C/C=C(\C)CC/C=C(\C)CC1=O` has a CC50 of 135 µM (cell viability, MTT; mouse lung slices; 48 h).
